Published values collected from several papers.
Each numbered part is a random draw from the data of one study; scales do not carry over between parts. “And” joins repeats or separate records; there may be more than shown.
UniProt Q96L34, sequence (whole entry, looked up): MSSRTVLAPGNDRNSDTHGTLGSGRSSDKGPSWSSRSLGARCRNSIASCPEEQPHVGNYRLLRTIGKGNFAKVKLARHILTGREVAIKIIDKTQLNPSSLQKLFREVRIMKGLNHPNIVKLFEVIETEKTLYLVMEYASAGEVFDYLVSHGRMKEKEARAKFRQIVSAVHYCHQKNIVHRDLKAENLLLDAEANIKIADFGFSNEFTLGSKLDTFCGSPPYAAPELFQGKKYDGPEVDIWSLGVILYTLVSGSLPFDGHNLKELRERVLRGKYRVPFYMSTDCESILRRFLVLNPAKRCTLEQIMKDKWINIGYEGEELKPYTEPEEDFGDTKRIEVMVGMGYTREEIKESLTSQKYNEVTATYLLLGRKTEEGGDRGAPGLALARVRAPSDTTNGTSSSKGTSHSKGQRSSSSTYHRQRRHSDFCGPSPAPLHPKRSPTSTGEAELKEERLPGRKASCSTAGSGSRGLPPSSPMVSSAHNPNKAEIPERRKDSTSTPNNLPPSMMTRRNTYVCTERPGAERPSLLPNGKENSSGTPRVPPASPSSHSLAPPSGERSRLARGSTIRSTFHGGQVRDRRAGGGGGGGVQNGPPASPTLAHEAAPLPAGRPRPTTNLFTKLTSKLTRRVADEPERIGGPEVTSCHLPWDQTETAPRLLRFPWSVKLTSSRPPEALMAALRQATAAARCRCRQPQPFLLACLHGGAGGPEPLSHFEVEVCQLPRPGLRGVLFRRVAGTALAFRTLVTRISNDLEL
UniProt P00519, sequence (whole entry, unmodified, looked up): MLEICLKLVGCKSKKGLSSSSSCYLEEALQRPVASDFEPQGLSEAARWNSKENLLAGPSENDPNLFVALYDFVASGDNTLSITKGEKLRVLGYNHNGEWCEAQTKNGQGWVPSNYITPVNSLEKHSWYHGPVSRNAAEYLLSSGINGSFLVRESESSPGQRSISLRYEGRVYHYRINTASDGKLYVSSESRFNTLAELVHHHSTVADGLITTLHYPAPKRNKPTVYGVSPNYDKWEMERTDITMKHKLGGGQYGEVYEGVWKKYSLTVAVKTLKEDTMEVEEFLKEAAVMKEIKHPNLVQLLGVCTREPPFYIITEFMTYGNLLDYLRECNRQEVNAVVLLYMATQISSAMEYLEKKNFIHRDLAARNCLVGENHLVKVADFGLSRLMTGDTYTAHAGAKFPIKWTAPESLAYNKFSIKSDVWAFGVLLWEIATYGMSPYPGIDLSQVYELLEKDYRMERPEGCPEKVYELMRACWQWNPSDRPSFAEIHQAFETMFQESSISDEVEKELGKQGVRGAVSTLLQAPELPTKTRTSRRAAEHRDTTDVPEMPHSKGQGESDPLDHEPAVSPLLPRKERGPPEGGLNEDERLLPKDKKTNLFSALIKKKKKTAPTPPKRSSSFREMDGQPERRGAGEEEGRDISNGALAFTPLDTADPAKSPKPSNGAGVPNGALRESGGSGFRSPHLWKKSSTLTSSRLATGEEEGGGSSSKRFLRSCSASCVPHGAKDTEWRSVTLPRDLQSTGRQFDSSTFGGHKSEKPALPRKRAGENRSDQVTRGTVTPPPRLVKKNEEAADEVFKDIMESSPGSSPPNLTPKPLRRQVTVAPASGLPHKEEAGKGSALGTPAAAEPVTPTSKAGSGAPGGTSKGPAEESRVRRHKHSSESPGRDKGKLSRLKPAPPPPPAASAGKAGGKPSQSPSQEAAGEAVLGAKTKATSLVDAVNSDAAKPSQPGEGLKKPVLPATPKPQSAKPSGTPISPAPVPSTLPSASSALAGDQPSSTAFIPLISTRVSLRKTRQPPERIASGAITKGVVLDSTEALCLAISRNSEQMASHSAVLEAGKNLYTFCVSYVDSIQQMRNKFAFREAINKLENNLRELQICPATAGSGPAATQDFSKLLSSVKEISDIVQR
UniProt Q9BX84, sequence (whole entry, looked up): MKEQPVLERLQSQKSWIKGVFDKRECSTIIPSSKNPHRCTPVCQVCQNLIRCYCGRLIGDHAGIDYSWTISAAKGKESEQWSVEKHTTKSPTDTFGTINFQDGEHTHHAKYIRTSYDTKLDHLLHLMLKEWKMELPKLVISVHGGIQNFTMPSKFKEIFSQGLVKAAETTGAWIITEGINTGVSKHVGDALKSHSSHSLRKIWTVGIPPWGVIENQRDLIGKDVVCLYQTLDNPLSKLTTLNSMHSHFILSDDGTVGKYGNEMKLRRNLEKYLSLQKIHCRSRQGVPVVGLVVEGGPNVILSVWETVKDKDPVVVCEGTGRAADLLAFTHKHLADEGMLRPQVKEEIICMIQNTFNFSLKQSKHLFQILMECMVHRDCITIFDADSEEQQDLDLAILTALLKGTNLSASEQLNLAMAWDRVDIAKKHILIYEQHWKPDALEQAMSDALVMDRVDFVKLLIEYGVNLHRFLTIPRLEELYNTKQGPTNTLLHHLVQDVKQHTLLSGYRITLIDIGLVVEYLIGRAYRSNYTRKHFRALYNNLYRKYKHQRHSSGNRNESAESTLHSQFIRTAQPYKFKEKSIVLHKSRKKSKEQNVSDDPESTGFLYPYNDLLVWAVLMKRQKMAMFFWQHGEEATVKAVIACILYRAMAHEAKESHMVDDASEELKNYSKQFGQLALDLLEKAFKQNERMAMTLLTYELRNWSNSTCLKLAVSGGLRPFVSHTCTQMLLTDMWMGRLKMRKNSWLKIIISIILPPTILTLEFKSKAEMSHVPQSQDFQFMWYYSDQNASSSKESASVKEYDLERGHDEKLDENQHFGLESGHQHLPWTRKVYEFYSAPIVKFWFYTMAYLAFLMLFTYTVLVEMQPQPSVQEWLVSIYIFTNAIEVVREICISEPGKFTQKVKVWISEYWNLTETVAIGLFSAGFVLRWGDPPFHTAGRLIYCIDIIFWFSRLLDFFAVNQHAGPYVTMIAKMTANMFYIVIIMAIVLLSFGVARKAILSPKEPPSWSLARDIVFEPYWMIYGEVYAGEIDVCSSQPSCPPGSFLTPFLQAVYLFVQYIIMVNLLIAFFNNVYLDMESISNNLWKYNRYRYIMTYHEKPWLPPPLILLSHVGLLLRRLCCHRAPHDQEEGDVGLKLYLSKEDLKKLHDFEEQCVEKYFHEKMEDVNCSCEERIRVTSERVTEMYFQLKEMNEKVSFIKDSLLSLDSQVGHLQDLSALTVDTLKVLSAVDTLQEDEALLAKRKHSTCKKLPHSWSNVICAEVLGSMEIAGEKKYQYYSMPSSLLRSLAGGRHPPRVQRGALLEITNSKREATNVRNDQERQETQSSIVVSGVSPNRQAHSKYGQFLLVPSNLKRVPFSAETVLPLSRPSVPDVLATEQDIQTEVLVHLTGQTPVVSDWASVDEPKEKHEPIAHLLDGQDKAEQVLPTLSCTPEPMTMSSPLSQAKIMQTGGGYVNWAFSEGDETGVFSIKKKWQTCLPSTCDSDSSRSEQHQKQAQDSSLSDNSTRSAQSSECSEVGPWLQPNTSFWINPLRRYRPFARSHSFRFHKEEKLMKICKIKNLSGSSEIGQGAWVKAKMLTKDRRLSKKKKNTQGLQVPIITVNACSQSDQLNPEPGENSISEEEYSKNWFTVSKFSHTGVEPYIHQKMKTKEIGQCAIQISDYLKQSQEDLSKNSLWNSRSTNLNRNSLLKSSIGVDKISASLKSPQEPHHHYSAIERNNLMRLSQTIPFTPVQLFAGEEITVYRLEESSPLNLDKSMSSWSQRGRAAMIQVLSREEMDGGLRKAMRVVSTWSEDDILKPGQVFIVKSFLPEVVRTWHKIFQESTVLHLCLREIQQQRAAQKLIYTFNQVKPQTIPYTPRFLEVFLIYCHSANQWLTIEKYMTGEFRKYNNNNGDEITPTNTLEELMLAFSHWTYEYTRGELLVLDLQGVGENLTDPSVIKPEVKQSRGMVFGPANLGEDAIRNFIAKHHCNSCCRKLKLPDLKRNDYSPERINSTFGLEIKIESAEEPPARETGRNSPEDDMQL
UniProt P04049, sequence (whole entry, looked up): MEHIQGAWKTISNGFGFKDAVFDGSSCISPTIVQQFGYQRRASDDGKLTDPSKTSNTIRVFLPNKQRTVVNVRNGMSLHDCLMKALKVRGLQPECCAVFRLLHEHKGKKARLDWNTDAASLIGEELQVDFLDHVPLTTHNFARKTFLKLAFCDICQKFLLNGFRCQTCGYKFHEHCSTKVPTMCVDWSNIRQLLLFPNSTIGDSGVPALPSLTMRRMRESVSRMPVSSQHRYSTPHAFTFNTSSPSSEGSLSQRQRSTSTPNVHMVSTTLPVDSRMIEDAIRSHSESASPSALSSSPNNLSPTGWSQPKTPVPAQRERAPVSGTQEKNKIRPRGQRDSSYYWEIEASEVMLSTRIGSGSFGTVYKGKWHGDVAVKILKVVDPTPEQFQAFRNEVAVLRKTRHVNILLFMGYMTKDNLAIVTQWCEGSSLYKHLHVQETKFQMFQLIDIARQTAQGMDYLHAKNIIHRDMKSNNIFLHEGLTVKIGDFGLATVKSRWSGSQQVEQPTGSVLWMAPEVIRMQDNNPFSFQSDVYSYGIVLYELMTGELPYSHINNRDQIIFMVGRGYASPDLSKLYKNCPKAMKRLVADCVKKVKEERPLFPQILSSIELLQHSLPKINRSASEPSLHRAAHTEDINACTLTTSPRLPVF

Set 1
Target: Serine/threonine-protein kinase VRK1 (VRK1, Homo sapiens, UniProt Q99986)
Observed: enzyme activity
Mode: inhibitor
Concentration: 0.5 µM
Relative to: control
Residues (Q99986 1-396): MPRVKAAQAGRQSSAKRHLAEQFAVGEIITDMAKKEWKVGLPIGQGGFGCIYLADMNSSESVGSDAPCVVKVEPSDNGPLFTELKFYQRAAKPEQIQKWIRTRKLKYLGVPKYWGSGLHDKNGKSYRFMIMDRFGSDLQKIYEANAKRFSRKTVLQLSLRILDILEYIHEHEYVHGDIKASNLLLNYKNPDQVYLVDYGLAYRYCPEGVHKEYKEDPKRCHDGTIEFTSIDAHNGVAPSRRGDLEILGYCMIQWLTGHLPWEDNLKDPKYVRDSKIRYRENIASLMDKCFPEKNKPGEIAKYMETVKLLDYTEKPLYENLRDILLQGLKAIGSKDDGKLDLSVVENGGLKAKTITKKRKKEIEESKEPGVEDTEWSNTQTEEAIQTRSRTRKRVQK
Compound	remaining activity [%]
COc1cc2ncnc(Nc3ccc(Oc4ccccc4)cc3)c2cc1OC	98.2
Nc1ccc2ncnc(NCCc3ccc(Oc4ccccc4)cc3)c2c1	99.5
Cn1c2ccccc2c2c3c(c4c5ccccc5n(CCC#N)c4c21)CNC3=O	84
OCC(O)CCON=C1C(c2c(O)[nH]c3ccccc23)=Nc2ccccc21 (centres unmarked)	88.3
Cc1ccc(NC(=O)c2ccc(CN3CCN(C)CC3)cc2)cc1Nc1nc(-c2cccnc2)cs1	97.4
O=C1NC(=O)C(c2cn(CCCn3ccnc3)c3ccccc23)=C1Nc1ccccc1	98.7
Oc1ccc(-c2nc(-c3ccncc3)c(-c3ccc(F)cc3)[nH]2)cc1	98.7
CC(C)[C@H](CO)Nc1nc(Nc2cc(N)cc(Cl)c2)c2ncn(C(C)C)c2n1	85.8
COc1ccc(C(=O)Nc2sc3c(c2C(N)=O)CCCC3)cc1OC	95.3
COc1cc2nccc(Oc3ccc(NC(=S)NC(=O)c4ccccc4C)cc3)c2cc1OC	96.3
O=C(CCCc1ccc(-c2ccccc2F)cc1)Nc1ccc(O)cc1	95.5
COc1ccc(CNC(=O)Nc2ncc([N+](=O)[O-])s2)cc1	95
N#CC(C#N)=C(N)/C(C#N)=C/c1ccc(O)cc1	103
COc1ccc(OC)c2c(=S)c3ccccc3[nH]c12	100
Nc1[nH]nc2nc3ccccc3nc12	103
O=C1NC(=O)C(c2cn(CCCO)c3ncccc23)=C1c1cnccn1	86.4

Set 2
SMILES: CN1CCN(C(=O)c2ccc(NC(=O)Nc3ccc(N(C)c4ccnc(Nc5ccc(CS(C)(=O)=O)cc5)n4)cc3)cc2)CC1
Concentration: 1 µM
target	observed	technique	remaining binding
PTK6 (Homo sapiens, UniProt Q13882)	binding	competition with immobilised ligand	95%
CASK (Homo sapiens, UniProt O14936)	binding	–	85%
EIF2AK4 (Homo sapiens, UniProt Q9P2K8, S808G)	binding	–	100%
EPHA7 (Homo sapiens, UniProt Q15375)	binding	competition with immobilised ligand	92%
CDK8 (Homo sapiens, UniProt P49336)	binding	competition with immobilised ligand	85%
SGK2 (Homo sapiens, UniProt Q9HBY8)	binding	–	73%
RIOK2 (Homo sapiens, UniProt Q9BVS4)	binding	–	21%
MARK4 (Homo sapiens, UniProt Q96L34)	binding	–	92%
AKT3 (Homo sapiens, UniProt Q9Y243)	binding	–	100%
EIF2AK1 (Homo sapiens, UniProt Q9BQI3)	binding	–	100%
CAMK1 (Homo sapiens, UniProt Q14012)	binding	–	100%
FLT3 (Homo sapiens, UniProt P36888, N841I)	binding	–	0%
STK32C (Homo sapiens, UniProt Q86UX6)	binding	–	100%
JAK1 (Homo sapiens, UniProt P23458)	binding	–	13%
EGFR (Homo sapiens, UniProt P00533)	binding	competition with immobilised ligand	100%
ABL1 (Homo sapiens, UniProt P00519, F317I)	–	–	96% and 69%

Set 3
Host: mouse
Sample: microsomes or S9
Concentration: 2 µM
Time: 0.5 h
Compound	remaining compound
COc1cc(=O)n(C)cc1C(=O)N1CCN(c2ccccc2Cl)CC1	> 99%
CC(C)(C)c1ccc(O)c(NC(=O)c2cc(Br)c[nH]2)c1	9.2%
Cc1ccc(OC(C)C)c(CN(CCO)CCO)c1	58.7%
O=S(=O)(Nc1ccc(N2CCOCC2)cc1)c1ccc(-c2nnc(C3CCC3)o2)o1	3.09%
Nc1ncnc2c1cnn2-c1nc2ccccc2s1	23.4%
Cc1cc(C(=O)NCCS(=O)(=O)N(C)C)cnc1C	88.6%
COC(=O)[C@@H](OC(C)(C)C)c1c(C)nc2c(c1Cl)CCN(Cc1ccc(OC)cc1)C2=O	0.0764%
Cc1c(S(=O)(=O)N2CCN(CC(=O)NCc3ccccc3)S(=O)(=O)CC2)sc2ccc(Cl)cc12	2.86%
Cc1ccc2c(c1)N(C(=O)c1cccc(F)c1)CC(C)O2 (centres unmarked)	1.85%
Cn1cc(C(NC(=O)c2cc3sccc3[nH]2)[C@H]2C[C@@H](O)C2)cn1 (some centres unmarked)	74.5%
COC(=O)C1(C(=O)OC)C(CC(=O)c2ccc(Br)cc2)c2cc(N(C)C)ccc2C(c2ccccc2)N1S(=O)(=O)c1ccc(C)cc1 (centres unmarked)	62%
COc1nn(C)cc1C(=O)N1CCN(c2nccn3nc4c(c23)CCCC4)CC1	16.3%
COc1c(C)cnc(CN2CCC(NC(=O)OC(C)(C)C)CC2)c1C	17.2%
COc1cc2c(=O)n(CCO)c(=O)n(CCCN(C)C)c2cc1OC	72.7%

Set 4
Compound: O=C(NCCCC1CCCCC1)c1ccc(CNC(=O)c2cnn(-c3ccccc3)c2C(F)(F)F)cc1
Technique: competition with immobilised ligand
Concentration: 0.1 µM
target	observed	remaining binding [%]
LRRK2 (Homo sapiens, UniProt Q5S007, G2019S)	cell-free assay	100
TNIK (Homo sapiens, UniProt Q9UKE5)	cell-free assay	100
PAK4 (Homo sapiens, UniProt O96013)	cell-free assay	100
CLK1 (Homo sapiens, UniProt P49759)	cell-free assay	96
PIM3 (Homo sapiens, UniProt Q86V86)	cell-free assay	100
TAOK2 (Homo sapiens, UniProt Q9UL54)	cell-free assay	89
MAP4K3 (Homo sapiens, UniProt Q8IVH8)	cell-free assay	78
CHUK (Homo sapiens, UniProt O15111)	cell-free assay	100
STK33 (Homo sapiens, UniProt Q9BYT3)	cell-free assay	87
MYLK4 (Homo sapiens, UniProt Q86YV6)	cell-free assay	100
MAP3K1 (Homo sapiens, UniProt Q13233)	cell-free assay	65
TSSK3 (Homo sapiens, UniProt Q96PN8)	cell-free assay	100
Ribosomal protein S6 kinase alpha-4, N-terminal kinase domain (RPS6KA4, Homo sapiens, UniProt O75676)	cell-free assay	83
HIPK4 (Homo sapiens, UniProt Q8NE63)	cell-free assay	100
PLK3 (Homo sapiens, UniProt Q9H4B4)	cell-free assay	100
RAF1 (Homo sapiens, UniProt P04049)	cell-free assay	99
MARK4 (Homo sapiens, UniProt Q96L34)	cell-free assay	98
CDK11A (Homo sapiens, UniProt Q9UQ88)	binding	100
MTOR (Homo sapiens, UniProt P42345)	cell-free assay	100
HUNK (Homo sapiens, UniProt P57058)	cell-free assay	100
TRPM6 (Homo sapiens, UniProt Q9BX84)	cell-free assay	94
BUB1 (Homo sapiens, UniProt O43683)	cell-free assay	100
Ribosomal protein S6 kinase alpha-3, N-terminal kinase domain (RPS6KA3, Homo sapiens, UniProt P51812)	cell-free assay	100
MAPK15 (Homo sapiens, UniProt Q8TD08)	cell-free assay	100
NTRK3 (Homo sapiens, UniProt Q16288)	cell-free assay	100

For quick reference, copied from above (set 4):
target	observed	remaining binding [%]
MAP3K1 (Homo sapiens, UniProt Q13233)	cell-free assay	65
TSSK3 (Homo sapiens, UniProt Q96PN8)	cell-free assay	100
Ribosomal protein S6 kinase alpha-4, N-terminal kinase domain (RPS6KA4, Homo sapiens, UniProt O75676)	cell-free assay	83
HIPK4 (Homo sapiens, UniProt Q8NE63)	cell-free assay	100
